Measured values of several laboratories.
Numbers after ± are the reported error.
Target: Adenosine receptor A3 (ADORA3, Homo sapiens, UniProt P0DMS8)
UniProt P0DMS8, sequence (whole entry, looked up): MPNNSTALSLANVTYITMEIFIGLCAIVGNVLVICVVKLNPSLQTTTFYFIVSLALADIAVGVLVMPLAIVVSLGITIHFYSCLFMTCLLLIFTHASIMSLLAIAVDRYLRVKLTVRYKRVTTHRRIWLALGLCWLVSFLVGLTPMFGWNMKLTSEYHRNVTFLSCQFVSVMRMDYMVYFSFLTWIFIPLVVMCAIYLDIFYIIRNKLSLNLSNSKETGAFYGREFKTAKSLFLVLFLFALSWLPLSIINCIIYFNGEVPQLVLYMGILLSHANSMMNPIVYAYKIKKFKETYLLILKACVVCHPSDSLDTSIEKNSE

CCNC(=O)[C@H]1O[C@@H](n2cnc3c(Nc4ccc(I)cc4)ncnc32)[C@H](O)[C@@H]1O — Ki (ligand displacement, radioligand; cell membranes): 14 nM
N#Cc1c(N)nc(SCc2ncc[nH]2)c(C#N)c1-c1cccc(O)c1 — Ki (ligand displacement, radioligand; cell membranes): 30 nM
OC[C@H]1O[C@@H](n2cnc3c(Nc4cccc(Br)c4)ncnc32)[C@H](O)[C@@H]1O — Kd (kinetic radioligand binding; no GTP, added: [3H]PSB-11): 12 ± 1.9 nM
CN(C(=O)c1ccn2ncc(-c3ccc(C(N)=O)cc3)c2c1)c1ccc(C#N)cn1 — IC50 (ligand displacement): > 30000 nM
Cc1cc(N2CC[C@@](C#N)(C3(C)CC3)C2=O)cc(C(=O)NCc2cc(F)cc(-c3cnn(C)c3)c2)n1 — IC50 (cell-free assay): 1800 nM
Nc1ncnc2c1ncn2[C@@H]1O[C@H](C(=O)NCCF)[C@@H](O)[C@H]1O — Ki (ligand displacement, radioligand; cell membranes): 240 nM
COc1ccc(-c2nc(CSc3nc(N)c(C#N)c(-c4ccccc4)c3C#N)cs2)cc1 — Ki (ligand displacement, radioligand; cell membranes): 507 nM
CNc1nc(C#Cc2ccc(Cl)s2)nc2c1ncn2[C@@H]1O[C@H](CO)[C@@H](O)[C@H]1O — Kd (kinetic radioligand binding; no GTP, added: [3H]PSB-11): 0.16 ± 0.02 nM
Nc1ncnc2c1ncn2[C@@H]1O[C@H](C(=O)NCC(F)F)[C@@H](O)[C@H]1O — Ki (ligand displacement, radioligand; cell membranes): 520 nM
CC(=O)Nc1ccc(-c2c(C#N)c(N)nc(SCc3ccccc3)c2C#N)cc1 — Ki (ligand displacement, radioligand; cell membranes): 156 nM

Excerpt of the above:
CCNC(=O)[C@H]1O[C@@H](n2cnc3c(Nc4ccc(I)cc4)ncnc32)[C@H](O)[C@@H]1O — Ki (ligand displacement, radioligand; cell membranes): 14 nM
